# Experimental data collected from several papers.
# Parts stem from different laboratories: compare values within a part only. Changes are numbered by the printed parent chain.

# Block 1
# Target: Prothrombin, mature alpha-thrombin (F2, Homo sapiens, UniProt P00734)
# Technique: aptamer microarray, sandwich
# Form: DNA with 2'F-ANA
# Matrix: in vitro
# Tested at: 200 nM
# Notes: whole 15-mer aptamer, many near background
# Together with: Cy3 exosite-II aptamer, 400 nM
# Reading: higher = stronger binding
# Sequence: GGTTGGTGTGGTTGG
Modification,mean fluorescence intensity [a.u.]
2'F-ANA at 3 4 5 6 7 8 9 10 13 14,61.8
2'F-ANA at 1 2 6 12 14,73.8
2'F-ANA at 3 4 5 6 7 8 9 10 15,53.7
2'F-ANA at 1 3 4 15,242
2'F-ANA at 3 6 8 9 12 14,602
2'F-ANA at 1 2 3 7 9 11 15,179
2'F-ANA at 1 2 5 6 7 8 10 13 14 15,54.5
2'F-ANA at 1 5 6 8 10 12,51.3
2'F-ANA at 5 11 13 14 15,43.6
2'F-ANA at 1 3 4 5 6 10 11 12 14,65.2
2'F-ANA at 1 2 5 6 12 13 15,74.8
2'F-ANA at 2 6 9 11 12 13 15,380
2'F-ANA at 1 2 3 6 10 11 13 14 15,63.8
2'F-ANA at 4 6 8 9 13 15,167
2'F-ANA at 2 3 4 7 12 13 15,817
2'F-ANA at 2 3 4 6 8 9 11 12 14 15,229
2'F-ANA at 2 3 7 10 11 13 15,325
2'F-ANA at 1 2 5 7 8 9 10 15,46.5
2'F-ANA at 1 7 9 15,246
2'F-ANA at 2 5 6 8 9 13 14,46.4

# Block 2
# Target: Histone acetyltransferase KAT6A, both winged helices, GST fusion (KAT6A, Homo sapiens, UniProt Q92794, residues 1-181)
# Technique: protein binding microarray
# Form: double-stranded DNA, one strand shown
# Matrix: in vitro
# Tested at: not given
# Notes: 8-mer, flanks averaged, mean of 2 arrays, mostly near background
# Relative to: not given
# Reading: higher = stronger binding
# Residues (chain): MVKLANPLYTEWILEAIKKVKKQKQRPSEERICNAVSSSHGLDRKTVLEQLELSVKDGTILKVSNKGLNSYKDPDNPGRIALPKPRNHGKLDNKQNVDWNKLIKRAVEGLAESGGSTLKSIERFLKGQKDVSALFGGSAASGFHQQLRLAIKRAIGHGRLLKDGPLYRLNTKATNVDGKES
Sequence,E-score
TGTGCCAA,-0.185
TACGCATA,0.133
ACTATGTC,-0.059
GAGATGAC,-0.0549
AACCAGAG,-0.137
CAGAAAAC,-0.12
GTAAACCA,0.0238
ACCGTTGG,-0.0295
ACGGTTCA,0.0774
GCATCGTA,0.0517
CAGGCCAA,-0.191
AACATCGT,-0.0394
ATGTCTAA,-0.0171
CGCGGCGC,0.391
CCCGACTA,0.0758
GTAATCAA,-0.0438
AGTCGGCC,0.111
GCGGAGAC,0.291

# Block 3
# Target: ABI1, truncated, D143A, DHFR fusion (Arabidopsis thaliana)
# Technique: DHFR PCA, deep sequencing
# Matrix: yeast
# Notes: methotrexate growth selection, single substitutions
# Together with: (+)-ABA 0.39 µM
# Relative to: wild-type fitted maximum
# Reading: higher = stronger binding
# Starting sequence: PYL1, truncated, DHFR fusion (Arabidopsis thaliana); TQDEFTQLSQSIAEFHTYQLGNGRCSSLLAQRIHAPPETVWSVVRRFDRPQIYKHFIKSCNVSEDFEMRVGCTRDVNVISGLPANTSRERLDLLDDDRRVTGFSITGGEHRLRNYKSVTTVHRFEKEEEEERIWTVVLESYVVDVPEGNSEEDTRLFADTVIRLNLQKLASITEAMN
Change,relative binding score [%]
E131V,41.9
D159R,-23.2
K126G,63.1
S9N,34.4
H122S,-5.62
A13M,30.2
N22K,59.7
F66P,-0.234
R49S,30
N22A,62.6
N22W,19.7
H110S,37.2
N149T,57.4
L112I,-8.33
R32M,36.8
A170Q,26.2
T135D,-4.93
E125R,45

# Block 4
# Target: RING finger protein unkempt homolog, zinc fingers 1-6, GST-SBP tag (UNK, Homo sapiens, UniProt Q9C0B0, residues 30-357)
# UniProt Q9C0B0, sequence (30-357, looked up): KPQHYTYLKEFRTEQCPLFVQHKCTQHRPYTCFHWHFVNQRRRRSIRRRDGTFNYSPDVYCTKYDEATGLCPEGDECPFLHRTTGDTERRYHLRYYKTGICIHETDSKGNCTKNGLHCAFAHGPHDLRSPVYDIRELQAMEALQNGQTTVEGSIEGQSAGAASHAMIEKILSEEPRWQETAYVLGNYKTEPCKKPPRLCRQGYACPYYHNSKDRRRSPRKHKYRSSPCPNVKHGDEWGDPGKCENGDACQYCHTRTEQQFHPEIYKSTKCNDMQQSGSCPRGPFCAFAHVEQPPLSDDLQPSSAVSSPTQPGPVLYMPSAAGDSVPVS
# Technique: RNA Bind-n-Seq
# Form: RNA
# Matrix: in vitro
# Tested at: not given
# Notes: RNA with constant flanks, human and mouse sites, ends assumed
# Relative to: input RNA pool
# Reading: higher = stronger binding
# Constant ends, left off below: GGGAGUUCUACAGUCCGACGAUC … CAACAGAGGAUUGAGCAUCA
Sequence,bound/input enrichment [ratio]
UCAGUUCUCAGGUUGGGACUUUACUUAUUGCUGCAGAACAGGAAAGGUUAGAGAGUAAGACUUCAGAAUUUAUUGAGAUUGUUGUUGUUCAAACAUUUUAUAUUAGAAUUGACAUGUAAA,0.778
UAUUAUUUAAAUUUUAUUUCUGCUAUUUCAAGAAGUAAACUGGAAGAUAUUGCAAAUGCAGCGUUAGCAGCUAGUGCAGUAACACAAGUAGCCAAGGUUUUUGACCAAUAUCUCAAUUUU,1.4
CCAAAAGGCCAAGCAGCUAUAGAGUUGGACAUUCUGCUAGGAAGUGGAAGGCACAUGAUCAGUCUAUGAGUCAAUAUAAUGCAACAGGGUGUUUUGAGACCUUUGUUUUCACCUCUUGGC,0.229
GCGGCCUCAUUGCUCCGUUUUCAGAGUACCUUGGUAAUAGCUGAGCAUGCAAAUGAUUCCCUAGCACCCAUUACUCUAAAUACUAUCACUGCAGCUGGACGUCUUGGAGGUGAAGUGUCC,0.333
CUAGGGAUUGGGCCAGGACCAGCAGACCUAAUUGACAAAGUCACUGGUCACCUAAAACUUUACUAGGUGGACUUUGAUAUGACAACAACCCCUCCAUCACAAGUGUUUGAAGCCUGUCAG,0.175
GCUGCAGGAAAAGAGAUUAUAUGGCAUGGGCGGACAAAAGAAGAACCAGCUCAUUACUGUAGCAUUUGUGAAGUGGAGGUUUUUGAUCUGCUUUUUGUCACUAAUGAGAGUAAUUCACGA,0.117
CCUGUGUGUCACUUCCCUCACCUCACAGGCUGUGACCCUACCCUGGGUCCCUUGUACAUAACUCCUUGUGACAAAACCCUCUGGAAGUUCUGGACCCCAUUUUUGAUAGGCUUUUUUGUC,0.895
GACAUUCUUCUCCUUGUUGUCCGAUUGGCUGUGCUGGUGGCUGUCACCCUCACGGUCCCAGUAGUUAUUUUCCCUAUCCGGAGUUCCGUCACUCACUUACUGUGUCCCACAAAAGAGUUC,0.492

# For quick reference, copied from above (block 1):
Modification,mean fluorescence intensity [a.u.]
2'F-ANA at 1 2 5 6 7 8 10 13 14 15,54.5
2'F-ANA at 4 6 8 9 13 15,167
2'F-ANA at 5 11 13 14 15,43.6
2'F-ANA at 1 7 9 15,246
2'F-ANA at 3 4 5 6 7 8 9 10 13 14,61.8
2'F-ANA at 2 3 7 10 11 13 15,325
2'F-ANA at 1 2 3 6 10 11 13 14 15,63.8
